Experimental data collected from several papers.
Every numbered part comes from another study and shows a few of its results, in no order. Substitutions count along the parent as printed.

Sample 1 — target: CCNB1, cyclin fold, Cln2 fusion (human); method: yeast growth competition, sequencing; sample: yeast; setting: strong parent motif; baseline: not given; direction: higher = stronger binding
Starting sequence: E2F1 docking peptide (human); PPVKRRLDFETDH
| Substitution | normalised enrichment score |
| --- | --- |
| R5Q | 3.03 |
| D12T | 4.79 |
| D8Q | 4.42 |
| R5T | 2.32 |
| R5I | 2.95 |
| D12K | 4.37 |
| R5G | 1.29 |
| R6C | 4.11 |
| D8I | 4.15 |
| D8G | 1.93 |
| L7M | 0.685 |
| R6E | 2.66 |
| T11S | 5.54 |
| F9A | 0.305 |
| K4N | 5.05 |
| R6N | 1.39 |
| K4V | 5.77 |
| E10V | 4.05 |
| V3D | 0.024 |
| R5V | 2.73 |
| D8L | 4.36 |
| F9K | 0.704 |
| D8C | 4.8 |
| L7P | 0.0633 |
| L7I | 3.12 |

Sample 2 — method: two-hybrid; baseline: out of 4 tests; direction: higher = firmer interaction
Partner: ARF12 500-593 (Arabidopsis thaliana, UniProt Q9XID4)
B1: ARF10 575-693 (Arabidopsis thaliana, UniProt Q9SKN5); chain LQGLETGHCKVFMESEDVGRTLDLSVIGSYQELYRKLAEMFHIEERSDLLTHVVYRDANGVIKRIGDEPFSDFMKATKRLTIKMDIGGDNVRKTWITGIRTGENGIDASTKTGPLSIFA
B2: IAA16 (Arabidopsis thaliana, UniProt O24407); chain MINFEATELRLGLPGGNHGGEMAGKNNGKRGFSETVDLKLNLSSTAMDSVSKVDLENMKEKVVKPPAKAQVVGWPPVRSFRKNVMSGQKPTTGDATEGNDKTSGSSGATSSASACATVAYVKVSMDGAPYLRKIDLKLYKTYQDLSNALSKMFSSFTIGNYGPQGMKDFMNESKLIDLLNGSDYVPTYEDKDGDWMLVGDVPWEMFVDSCKRIRIMKGSEAIGLAPRALEKCKNRS
B3: ARF4 660-788 (Arabidopsis thaliana, UniProt Q9ZTX9); chain QSSSKRICTKVHKQGSQVGRAIDLSRLNGYDDLLMELERLFNMEGLLRDPEKGWRILYTDSENDMMVVGDDPWHDFCNVVWKIHLYTKEEVENANDDNKSCLEQAALMMEASKSSSVSQPDSSPTITRV
B4: ARF1 538-665 (Arabidopsis thaliana, UniProt Q8L7G0); chain SRQIRSCTKVHMQGSAVGRAIDLTRSECYEDLFKKLEEMFDIKGELLESTKKWQVVYTDDEDDMMMVGDDPWNEFCGMVRKIFIYTPEEVKKLSPKNKLAVNARMQLKADAEENGNTEGRSSSMAGSR
B5: IAA15 (Arabidopsis thaliana, UniProt Q9C966); chain MSPEEYVRVWPDSGDLGGTELTLALPGTPTNASEGPKKFGNKRRFLETVDLKLGEAHENNYISSMVTNDQLVGWPPVATARKTVRRKYVKVALDGAAYLRKVDLGMYDCYGQLFTALENMFQGIITICRVTELERKGEFVATYEDKDGDLMLVGDVPWMMFVESCKRMRLMKTGDAIGL
B6: IAA32 (Arabidopsis thaliana, UniProt Q8RYC6); chain MDPNTPADFFKGSSKFHTYYSQTKKGGGVIDLGLSLRTIQHETYLPPARMIGLDGYGELIDWSQPSYNSITQLKSEDTGHQRLAQGYYNNEGESRGKYAYVKVNLDGLVVGRKVCLVDQGAYATLALQLNDMFGMQTVSGLRLFQTESEFSLVYRDREGIWRNVGDVPWKEFVESVDRMRIARRNDALLPF
Target sequence (chain): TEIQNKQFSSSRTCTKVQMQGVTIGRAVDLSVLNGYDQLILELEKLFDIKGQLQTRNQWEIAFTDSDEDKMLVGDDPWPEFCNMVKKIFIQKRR
| Sequence | positive tests |
| --- | --- |
| B1 (ARF10 575-693) | 0 |
| B2 (IAA16) | 0 |
| B3 (ARF4 660-788) | 0 |
| B4 (ARF1 538-665) | 0 |
| B5 (IAA15) | 0 |
| B6 (IAA32) | 1 |

Sample 3 — method: aptamer microarray, sandwich; molecule type: DNA with 2'F-ANA; sample: in vitro; concentration: 200 nM; with: Cy3 exosite-II aptamer, 400 nM; direction: higher = stronger binding; sequence: GGTTGGTGTGGTTGG
Target: Prothrombin, mature alpha-thrombin (F2, Homo sapiens, UniProt P00734)
Setting: whole 15-mer aptamer, many near background
| Modification | mean fluorescence intensity |
| --- | --- |
| 2'F-ANA at 1 3 6 7 10 14 | 59.3 a.u. |
| 2'F-ANA at 1 2 4 6 7 8 12 13 15 | 207 a.u. |
| 2'F-ANA at 2 3 5 9 13 14 15 | 48.6 a.u. |
| 2'F-ANA at 1 3 4 5 6 7 8 13 14 15 | 48.6 a.u. |
| 2'F-ANA at 1 4 5 7 8 10 12 13 14 | 86.3 a.u. |
| 2'F-ANA at 2 4 7 8 12 13 | 526 a.u. |
| 2'F-ANA at 1 2 4 5 7 13 14 | 50.1 a.u. |
| 2'F-ANA at 1 7 | 223 a.u. |
| 2'F-ANA at 2 3 4 7 9 11 12 14 15 | 277 a.u. |
| 2'F-ANA at 1 2 3 4 5 10 13 15 | 48.1 a.u. |
| 2'F-ANA at 1 3 4 6 7 8 9 10 11 12 13 14 | 136 a.u. |
| 2'F-ANA at 2 3 4 6 7 8 9 10 11 13 15 | 160 a.u. |
| 2'F-ANA at 2 3 4 5 11 12 15 | 153 a.u. |
| 2'F-ANA at 1 5 7 8 12 13 14 15 | 50.9 a.u. |
| 2'F-ANA at 1 2 5 6 7 9 10 15 | 49.1 a.u. |

Sample 4 — method: DHFR PCA, deep sequencing; sample: yeast; with: (+)-ABA 0.032 µM; baseline: wild-type fitted maximum; direction: higher = stronger binding
Target: ABI1, truncated, D143A, DHFR fusion (Arabidopsis thaliana)
Setting: methotrexate growth selection, single substitutions
Starting sequence: PYL1, truncated, DHFR fusion (Arabidopsis thaliana); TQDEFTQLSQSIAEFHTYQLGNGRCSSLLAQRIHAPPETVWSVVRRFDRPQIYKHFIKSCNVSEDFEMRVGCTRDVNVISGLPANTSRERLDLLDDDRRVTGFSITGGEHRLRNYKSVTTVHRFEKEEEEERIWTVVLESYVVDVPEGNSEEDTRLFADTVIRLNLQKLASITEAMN; partner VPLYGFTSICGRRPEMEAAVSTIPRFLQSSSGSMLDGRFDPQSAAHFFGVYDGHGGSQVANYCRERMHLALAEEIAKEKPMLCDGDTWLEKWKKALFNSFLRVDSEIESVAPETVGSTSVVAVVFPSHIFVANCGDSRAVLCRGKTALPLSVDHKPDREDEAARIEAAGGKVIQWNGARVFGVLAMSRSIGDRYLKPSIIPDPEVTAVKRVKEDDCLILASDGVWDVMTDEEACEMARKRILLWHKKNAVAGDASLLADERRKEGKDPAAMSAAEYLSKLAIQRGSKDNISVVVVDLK
| Substitution | relative binding score [%] |
| --- | --- |
| F157T | 4.46 |
| A175H | 9.07 |
| S27Q | 4.18 |
| S9T | 28.7 |
| S140R | 4.37 |
| G23L | 1.64 |
| E38F | -5.74 |
| C25E | -2.09 |
| R99T | -0.383 |
| Y53F | -0.659 |
| D65C | 5.5 |
| R155W | -0.631 |
| S9F | 9.55 |
| S140T | 2.45 |
| Q167S | 11.6 |

Mixed results
| Substance | target | assay | system | setting | scale | measurement | value |
| --- | --- | --- | --- | --- | --- | --- | --- |
| PhoQ, residues 284 288 289 292 302 303 AAQSYM | PhoP, residues 12 14 15 18 19 LYFRQ (Escherichia coli, UniProt P23836) | Sort-seq, measured: YFP reporter | E. coli | PhoQ-PhoP variant library, with: 10 µM Mg2+ | baseline: high Mg2+ state, higher = stronger signaling | fold induction | 18.4 |

Repeated from above (sample 3):
| Modification | mean fluorescence intensity |
| --- | --- |
| 2'F-ANA at 1 2 4 5 7 13 14 | 50.1 a.u. |
| 2'F-ANA at 1 7 | 223 a.u. |
| 2'F-ANA at 2 3 4 7 9 11 12 14 15 | 277 a.u. |
| 2'F-ANA at 1 2 3 4 5 10 13 15 | 48.1 a.u. |
